Assay results of several laboratories.
Each line is one published result; not all experiments were run side by side. Values joined by “and” are separate records of one study, mostly repeats; a detail may differ. ± gives the spread as reported.

Compound	assay	test system	setting	scale	endpoint	result
CSCCNc1nc(SCCC(F)(F)F)nc2c1ncn2[C@@H]1O[C@H](COP(=O)(O)OP(=O)(O)C(Cl)(Cl)P(=O)(O)O)[C@@H](O)[C@H]1O	ADP-induced platelet aggregation, light transmittance aggregometry	human patients, platelet-rich plasma	dose not given, 3 h, aggregation above 59%, added: ADP 20 µM	baseline: patients	high residual platelet reactivity	81.6%
OC(CCN1CCCCC1)(c1ccccc1)C1CC2C=CC1C2 (stereo not shown)	resting-state EEG	healthy elderly humans	oral, 2 mg, eyes open, LS mean	baseline: baseline	change in EEG Alpha1-power Pz-O2	9.3%
OC[C@H]1O[C@@H](c2ccc(Cl)c(Cc3ccc(O[C@H]4CCOC4)cc3)c2)[C@H](O)[C@@H](O)[C@@H]1O		Japanese type 1 diabetes patients	2.5 mg, day 28, 672 h	baseline: baseline	systolic blood pressure change	-0.7 mmHg
CCCOc1ccc(-c2ccc(C#N)cc2)cc1	proteomics, measured: Slc16a10	rat placenta	concentration not given, uterine perfusion, all three doses		protein level	decreased
Cn1cc([C@H]2C[C@H]3CSC(N)=N[C@@]3(c3ccc(F)cc3F)CO2)cn1	measured: Aβx-42	Mus musculus wild-type, brain	subcutaneous, 10 mg/kg, 18 h		Aβ42 level	0.53 ng/g
COc1ccc([C@@H](O)c2cc(-c3ncnc4cc(N5CCOCC5)ccc34)c(F)cc2Cl)nn1	RECIST version 1.1	patients, advanced solid tumours	200 mg twice daily, added: avelumab	baseline: patients	disease control rate	1%
CN[C@@H]1COc2c(S(=O)(=O)NC(=O)Nc3c4c(cc5c3CCC5)CCC4)cnn2C1	measured: IL-18	human participants, whole blood ex vivo	300 mg twice daily, multiple doses, 12 h, IL-18, circulating, adjusted for, added: LPS/ATP	baseline: baseline	inhibition	87.2%
CCO[C@H]1CCN(Cc2c(OC)cc(C)c3[nH]ccc23)[C@H](c2ccc(C(=O)O)cc2)C1		PNH patients, blood	oral, 25 mg then 100 mg, week 8, mean percent change	baseline: baseline	PNH RBC clone size	187%
N#Cc1ccc2c(c1)[C@H]1CCCN(C(=O)c3ccc4[nH]cnc4c3)[C@H]1C2		human, plasma	80 mg, day 15, 360 h	baseline: placebo and baseline	change in fasting glucose	3.9%
CC(C)[C@H](NC(=O)[C@H](Cc1ccc(O)cc1)NC(=O)[C@H](Cc1ccc(O)cc1)NC(=O)[C@@H]1CCCN1C(=O)[C@H](CCC(=O)O)NC(=O)[C@H](CCC(=O)O)NC(=O)[C@H](Cc1c[nH]c2ccccc12)NC(=O)[C@@H]1CCCN1C(=O)[C@@H](NC(=O)[C@H](CCC(N)=O)NC(=O)c1ccc2c(c1)C(=O)OC21c2ccc(O)cc2Oc2cc(O)ccc21)C(C)C)C(=O)N[C@H](C(=O)N[C@@H](CCCCN)C(=O)N[C@@H](CCCCN)C(=O)N[C@@H](CO)C(=O)N[C@@H](CO)C(=O)NCC(=O)NCC(N)=O)C(C)C	nerve discrimination	head and neck surgery patients	500 mg	baseline: white light	surgeons rating much improved	21.4%
O=C(COc1ccc(Cl)cc1)NC12CC(c3nnc([C@H]4C[C@@H](OC(F)(F)F)C4)o3)(C1)C2		healthy human, PBMC	45 mg once daily, day 14, 4 h post-dose, median, added: sodium arsenite ex vivo	baseline: baseline	ATF4 protein change	-44.5%
N#Cc1ccc2c(-c3ccncc3)c(-c3ccc(F)cc3)nn2c1	kinase binding, competitor, MIB/MS competition, measured: RIO2	Candida albicans cell lysate	10 µM	baseline: DMSO	log2 fold change	-0.275
CN(C(=O)n1cnc(-c2ccc[n+]([O-])c2)c1)C1CCCCC1		mice, formalin paw test	3 mg/kg, late phase, added: anandamide 5 mg/kg i.p.	direction not given	licking time score	1.7
COc1cc(CNC(=O)CCCC/C=C/C(C)C)ccc1O	laser speckle imaging	rhesus macaques, volar forearm skin	intradermal, 100 µg		flare area	117 mm²
CN[C@@H](C)C(=O)N[C@H]1CN(S(=O)(=O)c2cccc(S(=O)(=O)N3CC[C@H]4CC[C@@H](C(=O)NC(c5ccccc5)c5ccccc5)N4C(=O)[C@@H](NC(=O)[C@H](C)NC)C3)c2)CC[C@H]2CC[C@@H](C(=O)NC(c3ccccc3)c3ccccc3)N2C1=O	RECIST 1.1	advanced pancreatic cancer patients	dose not given, efficacy-evaluable, added: AG		median progression-free survival	3.22 months
Cc1cc(-c2nc(C(=O)Nc3cc4oc(N5CCOCC5)nc4nc3N3CC[C@@H](O)C3)co2)ccn1	immunohistochemistry	mouse, intracranial B16-F10 melanoma	high dose, day 7	baseline: vehicle	Ki67 expression	decreased
O=C(O)/C=C/c1nccc2c3ccccc3n(Cc3ccc(Br)cc3)c12		mouse, acute hyperuricaemia model	oral, 2 mg/kg		serum uric acid	881 µM
c1ccc(-c2cc(-c3ccccc3)n(Cn3ccnc3)n2)cc1		rat, STZ-nicotinamide diabetic	150 mg/kg, 168 h, full-thickness excision wound		wound size	16.6 mm
O=C(O)CCc1nccc2c1[nH]c1ccccc12		mouse, acute hyperuricaemia model, serum	oral, 2 mg/kg	baseline: vehicle model	serum uric acid decrease	50.7%
CC(C)NCC(O)c1ccc(O)c(O)c1 (stereo not shown)		ventricular cardiomyocytes, C57BL/6 mouse	dose not given, 0.488 s		sarcomere length	1.55 µm
Cc1c(Cl)c(C)[n+]([O-])c(Cl)c1-c1noc(-c2cc(O)c(O)c([N+](=O)[O-])c2)n1	glucuronidation, substrate	human liver microsomes			Vmax	25 ± 1.5 pmol/min/mg protein
C[C@H](Oc1ccc(Br)cc1-c1ccon1)C(=O)O	muscle velocity recovery cycles	human, tibialis anterior muscle	1200 mg single dose, 3.5 h		MVRC latency	5.93 ms
C[C@@H](NC(=O)N1C(=O)[C@H](Cc2ccnc(N)c2)[C@H]1C(=O)O)C1CCCCC1		human	iv infusion, 0.6 mg/kg/h, 24 h		ACT Emax	120 s
OC[C@H]1OC(O)[C@H]([18F])[C@@H](O)[C@@H]1O (stereo partly shown)	PET	NSCLC and melanoma patients, primary tumours	dose not given, median of five patients		SUVmax	7.7
C[C@H]1C[C@H]2CSC(N)=N[C@@]2(c2nc(NC(=O)c3ccc(OC(F)F)cn3)cs2)CO1	measured: Aβ1-40	healthy adults, plasma	275 mg once daily, day 10	baseline: placebo	percent change from baseline	-86.8%

Compound	assay	test system	setting	scale	endpoint	result
Cc1n[nH]c2ccc(-c3cc(OC[C@@H](N)Cc4ccccc4)cnc3-c3ccoc3)cc12	kinase binding, competitor, MIB/MS competition, measured: MKK2	Candida albicans cell lysate	1 µM	baseline: DMSO	log2 fold change	-0.183
O=C(O)CCc1nccc2c3ccccc3n(Cc3ccc(Br)c4ccccc34)c12		male mouse, acute hyperuricaemia model, serum	oral, 2 mg/kg, 4 h		serum uric acid	336 ± 108 µM
C[C@H]1O[C@@H](O[C@H]2CC[C@@]3(C)[C@@H](CC[C@]4(C)[C@@H]3C=C[C@]35OC[C@@]6(CCC(C)(C)C[C@H]63)[C@@H](O)C[C@]54C)[C@]2(C)CO)[C@H](O)[C@@H](O[C@@H]2O[C@H](CO)[C@@H](O)[C@H](O)[C@H]2O)[C@H]1O		chronic-plus-binge ethanol mice, plasma	oral, 10 mg/kg/day for 7 d, 168 h		γ-GT activity	22.4 U/L and 27.7 U/L and 24.6 U/L and 19.7 U/L and 33.3 U/L and 23.5 U/L and 21.3 U/L and 36.7 U/L
Cc1ccc([C@@H]2O[C@H](CO)[C@@H](O)[C@H](O)[C@H]2O)cc1Cc1ccc(-c2ccc(F)cc2)s1		Japanese type 2 diabetes patients	200 mg, day 17	baseline: day 1	change in fasting serum insulin	-0.9 µU/mL
CN(C)C(=O)c1cc2cnc(Nc3ccc(N4CCNCC4)cn3)nc2n1C1CCCC1	RNA-seq GSEA, measured: HALLMARK_E2F_TARGETS	MB002 tumour	concentration not given, in vivo	baseline: vehicle, direction not given	GSEA enrichment score	0.72
CC[C@@H]1[C@H](F)C(=O)N[C@@H]1COc1nccc2cc(C(N)=O)c(OC)cc12	ATP-site probe binding, ActivX profiling, measured: PCTAIRE1, PCTAIRE3	THP-1 cell lysate	0.2 mM, Lys2 site		inhibition	-0.8%
O=C(O)CSc1nnc(Br)n1-c1ccc(C2CC2)c2ccccc12		male mouse, acute hyperuricaemia model, serum	oral, 2 mg/kg, 4 h		serum uric acid	549 ± 131 µM
CCOc1cc(/C=C2\CN(C(C)=O)CC3=C2OC(N)=C(C#N)C3c2ccc(O)c(OCC)c2)ccc1O (stereo not shown)		rats, DMBA-induced mammary tumours	dose not given, day 21		tumour volume	0.15 ± 0.006 cm3
O=C(c1ccc(OCCN2CCCCC2)cc1)c1c(-c2ccc(O)cc2)sc2cc(O)ccc12		male ICR-CD1 mice	intracerebroventricular, 100 µg/animal, 25 to 30 min, added: formalin 2%		paw licking time	0 s
N#Cc1ccc2c(c1)[C@H]1CCCN(C(=O)c3ccc4[nH]cnc4c3)[C@H]1C2	measured: HDL	human	20 mg once daily, day 28, adjusted mean		change from baseline	-0.82 mg/dL
COc1cc2cc(-c3ccc(CC(=O)Nc4cc(C(C)(C)C(F)(F)F)no4)cn3)cnc2cc1OC	RECIST v1.1	RET-altered advanced solid tumour patients	oral, 75 mg once daily, phase I		disease control rate	54%
CC(C)[C@H](C(=O)Nc1ccc(C(=O)NO)cc1)c1ccccc1	volumetric MRI	human, right C1 intradural meningioma	dose not given, day 64		tumour growth rate	138 %/year
[Cl-].[Cl-].[Pt+2].[Ru+2].c1ccc(-c2nccnc2-c2ccccn2)nc1.c1cnc2c(c1)ccc1cccnc12.c1cnc2c(c1)ccc1cccnc12			concentration not given, first substitution step, added: guanosine 5'-monophosphate		activation enthalpy	10.5 ± 0.717 kcal/mol
C=CCn1c(=O)c2cnc(Nc3ccc(N4CCN(C)CC4)cc3)nc2n1-c1cccc(C(C)(C)O)n1	RECIST	HNSCC patients	dose not given, single agent first week, then cisplatin/docetaxel		tumour size change	-16%
COc1cc(Nc2ncc3c(n2)-c2ccc(Cl)cc2C(c2c(F)cccc2OC)=NC3)ccc1C(=O)O		mouse, KT-10 Wilms tumour xenograft	oral, 2.6 mg/kg, day 7	baseline: vehicle	relative tumour volume T/C	2.39
COCCOc1cnc2ccn([C@H](C)c3nnc4c(F)cc(-c5cnn(C)c5)cn34)c(=O)c2c1		human	200 mg twice daily		duration of response	232 days
O=C(O)CNC(=O)Cc1ccccc1		ventricular cardiomyocytes, C57BL/6 mouse	dose not given, 0.744 s		sarcomere length	1.72 µm
O=C(O)/C=C/c1nccc2c3ccccc3n(Cc3ccc(Br)c4ccccc34)c12		male mouse, acute hyperuricaemia model, serum	oral, 2 mg/kg, 4 h		serum uric acid	241 ± 110 µM
N=C(N)NCCC[C@H](NC(=O)[C@H](CCCNC(=N)N)NC(=O)[C@H](CCCCN)NC(=O)[C@H](CCC(N)=O)NC(=O)[C@H](CCCCN)NC(=O)[C@H](Cc1ccc(O)cc1)NC(=O)[C@@H](N)CCCCN)C(=O)N[C@@H](CO)C(=O)N[C@@H](Cc1ccc(O)cc1)C(=O)N[C@@H](CCCCN)C(=O)O		dentin hypersensitivity patients aged 30-40 years	10 µg/tooth, day 36, unit not given	baseline: baseline	VAS change	-25.7 ± 29
N#Cc1ccn2c(-c3ccncc3)c(-c3ccc(F)cc3)nc2c1	kinase binding, competitor, MIB/MS competition, measured: SHA3	Candida albicans cell lysate	100 nM	baseline: DMSO	log2 fold change	0.0105
CCN1CCN(Cc2ccc(Nc3ncc(F)c(-c4cc(F)c5nc6n(c5c4)[C@H](C)CCC6)n3)nc2)CC1	RECIST v1.1	advanced solid tumour patients	300 mg, Phase Ia monotherapy		disease control rate	66.7%
[Cl-].[Cl-].[Pt+2].[Ru+2].c1ccc(-c2nc3cc4ccccc4cc3nc2-c2ccccn2)nc1.c1cnc2c(c1)ccc1cccnc12.c1cnc2c(c1)ccc1cccnc12			concentration not given, first substitution step, added: guanosine 5'-monophosphate		activation enthalpy	7.65 ± 0.956 kcal/mol
NC(=O)c1cnc2[nH]ccc2c1N[C@@H]1[C@@H]2CC3C[C@H]1C[C@@](O)(C3)C2	flow cytometry, measured: CD4+ memory T cells	Japanese healthy subjects, peripheral blood	oral, 100 mg twice daily, day 4		change from baseline	-1.03%
Cc1cn[nH]c1	barrier function (TEER)	human ileal GI microtissue EpiIntestinal-FT			IC15	> 100 µM

A few entries again:
Compound	assay	test system	setting	scale	endpoint	result
CCOc1cc(/C=C2\CN(C(C)=O)CC3=C2OC(N)=C(C#N)C3c2ccc(O)c(OCC)c2)ccc1O (stereo not shown)		rats, DMBA-induced mammary tumours	dose not given, day 21		tumour volume	0.15 ± 0.006 cm3
C[C@H]1C[C@H]2CSC(N)=N[C@@]2(c2nc(NC(=O)c3ccc(OC(F)F)cn3)cs2)CO1	measured: Aβ1-40	healthy adults, plasma	275 mg once daily, day 10	baseline: placebo	percent change from baseline	-86.8%
O=C(O)/C=C/c1nccc2c3ccccc3n(Cc3ccc(Br)cc3)c12		mouse, acute hyperuricaemia model	oral, 2 mg/kg		serum uric acid	881 µM
Cc1cn[nH]c1	barrier function (TEER)	human ileal GI microtissue EpiIntestinal-FT			IC15	> 100 µM
